Experimental data gathered from unrelated publications.
Compare with care: the assays were run in different laboratories.

O=C1C(=C(O)NC23CC4CC(CC(C4)C2)C3)C(=O)C2(C(=O)OCc3ccccc3)CSC(c3ccccc3)N12 (stereo not shown) — MIC (Streptomyces; bacterial growth, broth dilution; Mueller-Hinton broth; 24 h, 35 °C): 31.3 µg/mL
CC1(C)[C@H](NC(=O)/C(=N\OCC(=O)N2CCC[C@@H]2C(=O)O)c2nsc(N)n2)C(=O)N1OS(=O)(=O)O — MIC (Citrobacter freundii; agar dilution; ATCC 43864, susceptible): 0.5 µg/mL
CCOc1c(NC(=O)c2ccc(NC(=O)[C@H](Cc3c[nH]nn3)NC(=O)c3ccc(NC(=O)/C(C)=C/c4ccc(O)cc4)cc3)cc2)ccc(C(=O)Nc2ccc(C(=O)O)c(O)c2OC)c1O — MIC (Mycolicibacterium phlei; DSM 750): 1 µg/mL
C=CCO/N=C(\C(=O)N[C@@H]1C(=O)N(OS(=O)(=O)O)C1(C)C)c1nsc(N)n1 — MIC (Citrobacter freundii; agar dilution; ATCC 43864, susceptible): 0.5 µg/mL
Cc1c(CN(C)C(=O)/C=C/c2cnc3c(c2)CC(N)C(=O)N3)oc2ccccc12 (stereo not shown) — MIC (Acinetobacter baumannii; broth microdilution; AR-0033): 32 µg/mL
C=C(NC(=O)c1csc(-c2nc3c(cc2O)-c2nc(cs2)C(=O)NC(C(C)O)C(=O)NC(=C(C)OC)c2nc(cs2)C(=O)NC2c4nc(cs4)C(=O)NC(COC(=O)c4c5c6c(cccc6n4O)COC(=O)C(OC4CC(C)(O)C(N(C)C)C(C)O4)C2OC5)c2nc-3cs2)n1)C(N)=O (stereo not shown) — MIC (Staphylococcus aureus; MRSA-11): 0.0039 µg/mL
CC(=O)NC[C@H]1CN(c2ccc(N3CCN(C(=O)CN)CC3)c(F)c2)C(=O)O1 — MIC (Salmonella enterica serovar Typhimurium; broth dilution; SL1344): inactive
C=CCO/N=C(\C(=O)N[C@@H]1C(=O)N(OS(=O)(=O)O)C1(C)C)c1csc(N)n1 — MIC (Citrobacter freundii; agar dilution; ATCC 43864, susceptible): 0.5 µg/mL
COc1ccccc1NC(=O)OC1C(C)C(OC)C=COC2(C)Oc3c(C)c(O)c4c(c3C2=O)C2=NC3(CCN(CC(C)C)CC3)NC2=C(NC(=O)C(C)=CC=CC(C)C(O)C(C)C(O)C1C)C4=O (stereo not shown) — MIC (Mycobacteroides abscessus; ATCC 19977; single-strain MIC): 140 µg/mL
N=C(N)NCCC[C@@H]1NC(=O)[C@H](CCCNC(=N)N)NC(=O)[C@@H](CCCNC(=N)N)NC(=O)[C@@H](CCCNC(=N)N)NC(=O)[C@@H](C(c2ccccc2)c2ccccc2)NC(=O)[C@H](Cc2c[nH]c3ccccc23)NC(=O)[C@@H](C(c2ccccc2)c2ccccc2)NC1=O — MIC (Candida albicans; SC5314): 16 µg/mL
O=C1C(=C(O)NC2CCCCC2)C(=O)C2(C(=O)OCc3ccc(Br)cc3)CSC(c3ccccc3)N12 (stereo not shown) — MIC (Streptomyces; bacterial growth, broth dilution; Mueller-Hinton broth; 24 h, 35 °C): 125 µg/mL
C/C(=C\c1ccc(O)cc1)C(=O)Nc1ccc(C(=O)N[C@@H](Cc2c[nH]nn2)C(=O)Nc2ccc(C(=O)Nc3ccc(C(=O)Nc4ccc(C(=O)O)c(O)c4)c(O)c3)cc2)cc1 — MIC (Mycolicibacterium phlei; DSM 750): 2 µg/mL
COC(=O)C12CSC(c3ccccc3)N1C(=O)C(=C(O)NC13CC4CC(CC(C4)C1)C3)C2=O (stereo not shown) — MIC (Streptomyces; bacterial growth, broth dilution; Mueller-Hinton broth; 24 h, 35 °C): 7.81 µg/mL
CC1(C)[C@H](NC(=O)/C(=N\OCC(=O)N2CCC(C(=O)O)C2)c2nsc(N)n2)C(=O)N1OS(=O)(=O)O (stereo partly shown) — MIC (Providencia rettgeri; agar dilution; ATCC 31052, susceptible): 0.25 µg/mL
C=CCOC(=O)[C@]12CS[C@H](c3ccccc3)N1C(=O)/C(=C(O)/C=C/c1ccccc1)C2=O — MIC (Streptomyces; bacterial growth, broth dilution; Mueller-Hinton broth; 24 h, 35 °C): 7.81 µg/mL
CNC(C)C1CCC(N)C(OC2C(N)CC(N)C(OC3OCC(C)(O)C(NC)C3O)C2O)O1 (stereo not shown) — MIC (Salmonella enterica serovar Typhimurium; 14028, Mueller-Hinton broth; 18 to 20 h, 37 °C): 2 µM

Repeated from above:
C=CCOC(=O)[C@]12CS[C@H](c3ccccc3)N1C(=O)/C(=C(O)/C=C/c1ccccc1)C2=O — MIC (Streptomyces; bacterial growth, broth dilution; Mueller-Hinton broth; 24 h, 35 °C): 7.81 µg/mL
CNC(C)C1CCC(N)C(OC2C(N)CC(N)C(OC3OCC(C)(O)C(NC)C3O)C2O)O1 (stereo not shown) — MIC (Salmonella enterica serovar Typhimurium; 14028, Mueller-Hinton broth; 18 to 20 h, 37 °C): 2 µM
